Published values collected from several papers.
± gives the spread as reported.

CSCC[C@H](NC(=O)[C@@H](NC(=O)[C@H](CCSC)NC(=O)[C@H](Cc1ccc(O)cc1)NC(=O)[C@H](CCCCN)NC(=O)[C@@H](N)Cc1c[nH]c2ccccc12)C(C)C)C(N)=O  EC50 (human neutrophils; chemotaxis, agonist): 0.002 µM
COc1ccc(Nc2c3c(nc4cc(C)ccc24)CCCC3)nc1  viability (SH-SY5Y; MTT; 50 µM, 1 h pretreatment, 10% FBS, together with: H2O2): 44 ± 3.2%
CCCCCCCCC[P+](c1ccccc1)(c1ccccc1)c1ccccc1  GI50 (SK-OV-3; cell growth or viability, MTT; 72 h): 0.647 µM
CC[C@H](C)[C@@H](OC(=O)[C@@H](NC(=O)[C@H](C)OCc1ccccc1)C(C)C)C(=O)N[C@@H](C(=O)O[C@@H](C)C(=O)N[C@H](C(=O)O[C@@H](C(=O)N[C@@H](C(=O)OC(C)(C)C)C(C)C)[C@@H](C)CC)C(C)C)C(C)C  GI50 (NCI-460; cell growth or viability): > 10 µg/mL
CCC(C)C(=O)OC1C2C3(C)CCC(OC4CC(OC)C(OC5OC(C)C(O)C(OC)C5O)C(C)O4)CC3CCC23OC32CCC(C(C)=O)C2(C)C1OC(C)=O (centres unmarked)  fold reversal of IC50 (MDA435/LCC6-MDR1; cell growth, MDR reversal, SRB; 10 µM, together with: paclitaxel; relative to: paclitaxel alone over combination): 22
COC(=O)C1=CO[C@@H](OC(C)=O)[C@@H]2C(Cn3cc(CCO)nn3)=CC[C@H]12  viability (SK-N-SH; neuroprotection, MTT; 0.6 µM, 24 h, together with: 250 µM H2O2): 65.3 ± 0.29%
CN[C@@H](C)C(=O)N[C@H]1CN(C(=O)Cc2ccccc2)CC[C@H]2CC[C@@H](C(=O)NCc3ccc(C(F)(F)F)cc3)N2C1=O  cell death (SK-OV-3; TNFα-dependent cell killing, trypan blue; 1 µM, 48 h, together with: TNFα-blocking antibody 2 µg/mL): inhibited
Cc1cc(C)c(N2CCN(c3c(C)cc(C)cc3C)C2=[Se])c(C)c1.[Cl][Au]  IC50 (A2780; cell growth or viability; 72 h, 3D culture): 8.2 µM
CSCC[C@H](NC(=O)[C@H](CC(C)C)NC(=O)[C@H](Cc1c[nH]cn1)NC(=O)CNC(=O)[C@@H](NC(=O)[C@H](C)NC(=O)[C@H](Cc1c[nH]c2ccccc12)NC(=O)[C@H](CCC(N)=O)NC(=O)CCCCCCCNC(=O)[C@@H](CCCCNC(=O)Cn1ccnc1[N+](=O)[O-])NC(=O)[C@@H](CCCCNC(=O)Cn1ccnc1[N+](=O)[O-])NC(=O)[C@@H](CCCCNC(=O)Cn1ccnc1[N+](=O)[O-])NC(=O)CN1CCN(CC(=O)O)CCN(CC(=O)O)CCN(CC(=O)O)CC1)C(C)C)C(N)=O [indium-111 labelled]  retained internalized radioactivity (PC-3; concentration not given, 8 h, hypoxia): 69.4%
N=C(N)Nc1ccc(-c2nc3ccc(-c4ccc5nc(-c6ccc(NC(=N)N)cc6)[nH]c5c4)cc3[nH]2)cc1  lowest effective concentration (sample A patient myotubes; measured: MBNL1 exon 5 splicing; significant improvement): 1 µM
COc1ccc2cc(Nc3c4c(nc5ccccc35)CCCC4)ccc2c1  viability (SH-SY5Y; MTT; 50 µM, 1 h pretreatment, 10% FBS, together with: H2O2): 31.6 ± 4.02%
COC(=O)C1=CO[C@@H](OC(C)=O)[C@@H]2C(Cn3cc(CN4C(=O)c5ccccc5C4=O)nn3)=CC[C@H]12  viability (SK-N-SH; neuroprotection, MTT; 0.15 µM, 24 h, together with: 250 µM H2O2): 54.2 ± 1.1%
CC1CN1c1cc(O)c2nc(N)sc2c1 (centres unmarked)  H3K36 methylation (HM-2 mouse cells; western blot; concentration not given, 8 days): no effect
COC(=O)C1=CO[C@@H](OC(C)=O)[C@@H]2C(Cn3cc(COCc4ccc(OC)c(OC)c4)nn3)=CC[C@H]12  viability (SK-N-SH; neuroprotection, MTT; 0.075 µM, 24 h, together with: 250 µM H2O2): 78.1 ± 0.4%
[Cl][Ag].[Se]=c1n(C2CCCCC2)ccn1C1CCCCC1  IC50 (LoVo MDR; MTT; 72 h): 6.9 ± 1.1 µM
[N]#[Os]([Cl])([Cl])[Cl].c1cnc2c(c1)ccc1cccnc12  DNA damage markers (A2780; immunoblot, measured: γH2AX, CHK1, CHK2, p53 Ser15; concentration not given, 72 h): increased
CC[C@H](C)[C@@H]([C@@H](CC(=O)N1CCC[C@H]1[C@H](OC)[C@@H](C)C(=O)NC(Cc1ccccc1)C(C)OC)OC)N(C)C(=O)[C@@H](NC(=O)[C@H]([C@@H](C)CC)N(C)C)C(C)C (some centres unmarked)  potency fold over MMAF (MDA-MB-231 cells; cytotoxicity; relative to: MMAF EC50 over compound EC50): ~170 fold
COC(=O)C[C@](O)(CCCC(C)(C)OC(C)=O)C(=O)O[C@@H]1C(OC)=C[C@]23CCCN2CCc2cc4c(cc2[C@H]13)OCO4  time to MCL-1 degradation (pancreatic cancer cells; western blot; 1 µM): 4 h
F[P-](F)(F)(F)(F)F.F[P-](F)(F)(F)(F)F.[Ru+2].c1ccc(-c2ccccn2)nc1.c1ccc(-c2ccccn2)nc1.c1csc(-c2cc3cccnc3c3ncccc23)c1  phototherapeutic index (SK-MEL-28; cell viability; red light 625 nm; relative to: dark EC50 over light EC50): 1
CC1=CCC23OC2(C)CCC2C(C[N+](C)(C)C)C(=O)OC2C13.[I-] (centres unmarked)  inhibition (UACC-62; cell growth or viability, SRB; 8.3 µM): 63.8%
CC/C=C\C/C=C\C/C=C\C/C=C\C/C=C\C/C=C\CCC(=O)Nc1ccn(C2OC(CO)C(O)C2(F)F)c(=O)n1 (centres unmarked)  CC50 (UACC-62; NCI60 screen): 43 µM
CCCCCCCCCCOCc1cn(CC2=CC[C@@H]3C(C(=O)OC)=CO[C@@H](OC(C)=O)[C@H]23)nn1  viability (SK-N-SH; neuroprotection, MTT; 0.075 µM, 24 h, together with: 250 µM H2O2): 52.1 ± 0.5%
O=C(O)CCC(NP(=O)(O)OCCC[C@@H](NC(=O)CCC(NC(=O)CCCCCNC(=O)c1ccc([18F])cc1)C(=O)O)C(=O)O)C(=O)O (some centres unmarked)  cell uptake (CWR22Rv1; 1 h): 0.56 ± 0.05%
Cc1ccc(CCNc2c(NC3CCN(Cc4ccccc4)CC3)c(=O)c2=O)cc1  cell survival (SH-SY5Y; neuroprotection, MTT; 12.5 µM, 24 h pretreatment, together with: H2O2 650 µM for 4 h): 58.7%
CC(C)C[C@@H]1NC(=O)[C@H](CCCNC(=N)N)NC(=O)[C@H](CCCCN)NC(=O)[C@H](CC(=O)O)NC(=O)[C@H](CCCCN)NC(=O)[C@@H](CO)NC1=O  ERK1/2 phosphorylation (Panc1_A8; Western blot, measured: pERK1/2; 500 nM, together with: U0126 10 µM): decreased
COC(=O)C1=CO[C@@H](O)[C@@H]2C(Cn3cc(C(O)(c4ccccc4)c4ccccc4)nn3)=CC[C@H]12  viability (SK-N-SH; neuroprotection, MTT; 0.15 µM, 24 h, together with: 250 µM H2O2): 80.9 ± 3%
CC(C)C[C@H](NC(=O)CCNc1ccc([N+](=O)[O-])c2nonc12)C(=O)N[C@@H](CC(C)C)C(=O)N[C@@H](CC(C)C)C(=O)N[C@@H](CC(C)C)C(=O)N[C@@H](Cc1ccc(OP(=O)(O)O)cc1)C(=O)O  IC50 (SJSA-1; cell viability, MTT; 24 h): 101 µM
Cc1ccnc(Nc2c3c(nc4cc(C)ccc24)CCCC3)c1  viability (SH-SY5Y; MTT; 50 µM, 1 h pretreatment, 10% FBS, together with: H2O2): 38.5 ± 1.87%
CC(C)CC(O)(CC(C)C)c1cn(C(=O)N2CCCC2)nn1  SILAC ratio (mouse T-cells; N-terminal labeled proteins, N-terminal enrichment proteomics, measured: TPI1; 1 nM, 6 h; relative to: DMSO): 2.42 ± 0.35
CC(C)=CCC/C(C)=C/C[P+](c1ccccc1)(c1ccccc1)c1ccccc1  GI50 (SK-OV-3; cell growth or viability, MTT; 72 h): 1.27 µM
COC(=O)C1=CO[C@@H](OC(C)=O)[C@@H]2C(Cn3cc(C4(O)CCCCC4)nn3)=CC[C@H]12  viability (SK-N-SH; neuroprotection, MTT; 0.3 µM, 24 h, together with: 250 µM H2O2): 63.3 ± 1%
CN1C(=O)C2(Cc3ccc(CC45SSC(CO)(C(=O)N4C)N(C)C5=O)cc3)SSC1(CO)C(=O)N2C (racemic)  VEGF protein level decrease (MCF7; western blot; 200 nM, together with: deferoxamine 300 µM): ~40%
CC(C)C[C@H](NC(=O)[C@H](CO)NC(=O)[C@H](Cc1c[nH]c2ccccc12)NC(=O)[C@H](Cc1ccccc1)NC(=O)[C@H](Cc1ccccc1)NC(=O)[C@H](CCC(N)=O)NC(=O)[C@@H]1CCCN1C(=O)[C@H](CCCNC(=N)N)NC(=O)[C@H](CCCNC(=N)N)NC(=O)[C@H](CCCNC(=N)N)NC(=O)[C@H](CCC(N)=O)NC(=O)[C@H](CCCNC(=N)N)NC(=O)[C@H](CCCNC(=N)N)NC(=O)[C@H](CCCCN)NC(=O)[C@H](CCCCN)NC(=O)[C@H](CCCNC(=N)N)NC(=O)CNC(=O)[C@@H](N)Cc1ccc(O)cc1)C(=O)N[C@@H](CS)C(=O)N[C@H](C(=O)N[C@@H](C)C(=O)O)[C@@H](C)O  cell death (Jurkat; PI staining flow cytometry; 15 µM, 18 h, 0.5% FBS): 70.5%
C#CCSc1nc(Sc2nnnn2C)c2nnn(Cc3ccccc3)c2n1  IC50 (OCI-AML-3; cell growth or viability, MTS; 6 days): 2.5 µM
COC(=O)C1=CO[C@@H](OC(C)=O)[C@@H]2C(Cn3cc(-c4ccc(OC)cc4)nn3)=CC[C@H]12  viability (SK-N-SH; neuroprotection, MTT; 0.15 µM, 24 h, together with: 250 µM H2O2): 66.6 ± 0.7%
C[C@H]1O[C@@H]2C3=C(O[C@]2(C)[C@@]1(O)C=O)C(=O)c1c(O)cccc1C3=O  selectivity index (MDA-MB-231 and HFF; MTT; relative to: CC50 HFF over EC50 MDA-MB-231): 2.93
COC(=O)C1=CO[C@@H](OC(C)=O)[C@@H]2C(Cn3cc(COCc4ccc(OC)cc4)nn3)=CC[C@H]12  viability (SK-N-SH; neuroprotection, MTT; 0.6 µM, 24 h, together with: 250 µM H2O2): 69.5 ± 0.2%
COC1CC(OC2CCC3(C)C(CCC45OC46CCC(C(C)=O)C6(C)C(OC(C)=O)C(OC(=O)c4ccccc4)C35)C2)OC(C)C1OC1OC(C)C(OC2OC(CO)C(O)C(O)C2O)C(OC)C1O (centres unmarked)  fold reversal of IC50 (MDA435/LCC6-MDR1; cell growth, MDR reversal, SRB; 10 µM, together with: paclitaxel; relative to: paclitaxel alone over combination): 1
